Results of several laboratories.
Sequence of UniProt P50613 (whole entry, looked up): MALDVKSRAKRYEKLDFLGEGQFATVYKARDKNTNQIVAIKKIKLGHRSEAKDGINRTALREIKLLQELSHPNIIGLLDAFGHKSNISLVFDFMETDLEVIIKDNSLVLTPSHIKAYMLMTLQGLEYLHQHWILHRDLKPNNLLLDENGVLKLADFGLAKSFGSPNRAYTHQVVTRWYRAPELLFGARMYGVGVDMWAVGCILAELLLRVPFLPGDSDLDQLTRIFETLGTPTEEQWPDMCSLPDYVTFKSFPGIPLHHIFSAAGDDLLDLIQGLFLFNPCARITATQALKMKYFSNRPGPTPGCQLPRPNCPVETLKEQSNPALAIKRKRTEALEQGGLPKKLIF
Sequence of UniProt P23458 (whole entry, looked up): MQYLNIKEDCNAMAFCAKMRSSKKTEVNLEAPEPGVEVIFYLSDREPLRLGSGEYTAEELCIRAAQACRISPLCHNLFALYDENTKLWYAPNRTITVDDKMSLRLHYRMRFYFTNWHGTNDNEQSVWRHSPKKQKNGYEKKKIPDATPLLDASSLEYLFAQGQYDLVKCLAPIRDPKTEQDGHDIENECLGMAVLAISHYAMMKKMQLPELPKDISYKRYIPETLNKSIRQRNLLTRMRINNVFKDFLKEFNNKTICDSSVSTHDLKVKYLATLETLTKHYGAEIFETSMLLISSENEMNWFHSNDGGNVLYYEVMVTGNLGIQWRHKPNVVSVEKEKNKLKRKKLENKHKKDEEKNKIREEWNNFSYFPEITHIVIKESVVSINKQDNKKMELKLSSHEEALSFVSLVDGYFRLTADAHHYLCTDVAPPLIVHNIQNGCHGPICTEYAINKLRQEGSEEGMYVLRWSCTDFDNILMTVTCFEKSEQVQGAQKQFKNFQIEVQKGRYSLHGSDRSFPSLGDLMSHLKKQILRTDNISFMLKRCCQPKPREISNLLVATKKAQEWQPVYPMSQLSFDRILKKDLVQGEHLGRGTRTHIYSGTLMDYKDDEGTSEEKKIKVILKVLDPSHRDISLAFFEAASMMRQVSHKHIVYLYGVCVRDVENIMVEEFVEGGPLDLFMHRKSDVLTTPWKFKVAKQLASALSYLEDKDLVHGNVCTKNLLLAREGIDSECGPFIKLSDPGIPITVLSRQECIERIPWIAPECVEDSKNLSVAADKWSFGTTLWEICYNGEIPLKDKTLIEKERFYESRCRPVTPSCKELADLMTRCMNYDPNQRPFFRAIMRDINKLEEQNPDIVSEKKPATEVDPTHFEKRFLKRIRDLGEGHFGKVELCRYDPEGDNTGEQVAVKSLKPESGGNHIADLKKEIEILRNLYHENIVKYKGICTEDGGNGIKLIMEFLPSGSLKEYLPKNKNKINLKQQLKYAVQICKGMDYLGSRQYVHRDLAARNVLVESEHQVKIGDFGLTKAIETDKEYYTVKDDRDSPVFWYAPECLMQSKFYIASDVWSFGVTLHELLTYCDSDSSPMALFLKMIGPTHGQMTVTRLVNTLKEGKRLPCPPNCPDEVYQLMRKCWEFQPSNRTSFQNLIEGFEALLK
Sequence of UniProt P11309 (whole entry, looked up): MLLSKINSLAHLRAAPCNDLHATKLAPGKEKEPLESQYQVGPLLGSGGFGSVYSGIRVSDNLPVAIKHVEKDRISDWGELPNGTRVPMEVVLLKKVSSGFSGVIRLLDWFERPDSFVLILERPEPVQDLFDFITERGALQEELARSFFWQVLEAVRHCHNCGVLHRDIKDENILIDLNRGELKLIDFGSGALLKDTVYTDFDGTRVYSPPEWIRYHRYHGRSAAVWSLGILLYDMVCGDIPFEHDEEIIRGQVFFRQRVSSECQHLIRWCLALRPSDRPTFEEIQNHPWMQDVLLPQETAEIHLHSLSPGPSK
Sequence of UniProt P11150 (whole entry, looked up): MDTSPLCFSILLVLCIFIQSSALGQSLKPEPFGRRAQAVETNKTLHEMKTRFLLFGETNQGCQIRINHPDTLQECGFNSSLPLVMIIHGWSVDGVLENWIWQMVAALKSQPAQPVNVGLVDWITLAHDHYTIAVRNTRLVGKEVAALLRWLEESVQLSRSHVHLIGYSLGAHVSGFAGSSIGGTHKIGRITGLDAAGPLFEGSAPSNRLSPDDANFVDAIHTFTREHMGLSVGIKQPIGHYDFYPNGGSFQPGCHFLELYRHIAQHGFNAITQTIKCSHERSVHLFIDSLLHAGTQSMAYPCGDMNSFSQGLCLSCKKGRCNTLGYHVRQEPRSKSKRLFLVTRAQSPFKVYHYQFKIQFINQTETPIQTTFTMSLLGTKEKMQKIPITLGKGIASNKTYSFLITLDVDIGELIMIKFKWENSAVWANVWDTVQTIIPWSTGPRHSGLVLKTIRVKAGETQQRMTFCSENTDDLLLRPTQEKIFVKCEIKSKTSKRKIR
Sequence of UniProt Q7Z601 (whole entry, looked up): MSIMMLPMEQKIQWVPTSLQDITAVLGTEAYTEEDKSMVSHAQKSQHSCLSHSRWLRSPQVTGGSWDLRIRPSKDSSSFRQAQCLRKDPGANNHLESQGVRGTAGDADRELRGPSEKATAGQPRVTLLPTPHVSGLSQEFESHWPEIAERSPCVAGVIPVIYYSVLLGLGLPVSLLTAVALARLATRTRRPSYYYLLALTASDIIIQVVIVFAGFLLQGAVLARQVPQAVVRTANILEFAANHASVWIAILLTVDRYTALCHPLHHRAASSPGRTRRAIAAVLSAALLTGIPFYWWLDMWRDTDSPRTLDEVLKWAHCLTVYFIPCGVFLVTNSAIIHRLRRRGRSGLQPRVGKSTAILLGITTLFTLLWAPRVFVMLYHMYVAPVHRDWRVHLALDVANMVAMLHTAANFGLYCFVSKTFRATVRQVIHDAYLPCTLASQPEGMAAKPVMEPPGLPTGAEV
Sequence of UniProt P23975 (whole entry, looked up): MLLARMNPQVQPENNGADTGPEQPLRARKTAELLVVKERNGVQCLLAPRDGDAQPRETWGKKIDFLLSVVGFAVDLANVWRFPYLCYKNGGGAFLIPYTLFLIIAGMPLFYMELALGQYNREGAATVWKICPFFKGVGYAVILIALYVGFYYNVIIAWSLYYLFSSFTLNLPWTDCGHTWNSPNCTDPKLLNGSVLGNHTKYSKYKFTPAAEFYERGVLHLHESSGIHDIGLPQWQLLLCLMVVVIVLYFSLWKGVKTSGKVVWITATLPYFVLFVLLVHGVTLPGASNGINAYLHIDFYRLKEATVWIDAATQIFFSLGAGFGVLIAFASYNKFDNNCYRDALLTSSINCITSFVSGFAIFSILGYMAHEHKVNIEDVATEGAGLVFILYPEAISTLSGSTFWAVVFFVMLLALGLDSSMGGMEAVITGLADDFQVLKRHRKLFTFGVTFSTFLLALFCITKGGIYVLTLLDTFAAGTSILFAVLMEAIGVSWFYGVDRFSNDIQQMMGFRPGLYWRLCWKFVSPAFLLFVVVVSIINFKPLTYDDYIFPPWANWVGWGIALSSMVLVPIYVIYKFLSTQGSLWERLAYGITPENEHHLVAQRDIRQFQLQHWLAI

| SMILES | tested on | assay | test system | conditions | how to read | quantity | value |
| --- | --- | --- | --- | --- | --- | --- | --- |
| O=C(c1ccc(Cl)cc1)N1CCN2C(=O)N(OC(=O)N3CCOc4ccccc43)C(=O)C2C1 (stereo not shown) | Hepatic triacylglycerol lipase (Homo sapiens, UniProt P11150) | enzyme activity, inhibitor, MS-based ABPP | SW-620 conditioned medium | 10 µM, 1 h, 37 °C | relative to: compound over DMSO, lower = stronger inhibition | median ratio | 0.95 |
| OC[C@H]1O[C@@H](n2ccc3c(SCc4ccc(Cl)c(Cl)c4)ncnc32)[C@H](O)[C@@H]1O | Toxoplasma gondii | [3H]uracil incorporation | human fibroblasts, adenosine kinase deficient | 25 µM |  | survival | 100% |
| CNC1(c2ccccc2Cl)CCCCC1=O (racemic) | Sodium-dependent noradrenaline transporter (SLC6A2, Homo sapiens, UniProt P23975) | radioligand binding, antagonist, radioligand displacement |  | 30 µM |  | inhibition | -18% |
| COc1ccc(N2C(=O)N(c3c(C)cccc3Cl)Cc3cnc(Nc4ccc(C5CCN(C)CC5)cc4OC)nc32)nc1 | Serine/threonine-protein kinase pim-1 (PIM1, Homo sapiens, UniProt P11309) | kinase activity |  | 0.5 µM |  | inhibition | 3% |
| Oc1ccc2c3c1O[C@H]1[C@@H](O)CC[C@@]4(O)[C@@H](C2)N(CC2CCC2)CC[C@]314 | Probable G-protein coupled receptor 142 (Homo sapiens, UniProt Q7Z601) | β-arrestin recruitment, TANGO luminescence, item: GPR142 |  | concentration not given | relative to: basal luminescence | log2 fold change | -0.183 |
| OC[C@H]1O[C@@H](n2ccc3c(SCc4ccc(F)cc4F)ncnc32)[C@H](O)[C@@H]1O | Toxoplasma gondii | [3H]uracil incorporation | human fibroblasts, adenosine kinase deficient | 25 µM |  | survival | 100% |
| O=c1cc(N2CCOCC2)oc2c(-c3cccc4c3sc3ccccc34)cccc12 | human coronavirus OC43 | virus-induced cell killing | MRC-5 | screen |  | maximum inhibition | 7.87% |
| C[C@H]1CN(c2n[nH]c3nc(N[C@H]4CC[C@H](NS(=O)(=O)CCC(F)(F)F)CC4)ncc23)CCO1 | Cyclin-dependent kinase 7 (CDK7, Homo sapiens, UniProt P50613) | Kinobeads competition | HEK293, K562, placenta lysate | 0.032 µM, unit not given | relative to: vehicle | remaining binding | 0.93 |
| [2H]c1c([2H])c([C@]2([2H])CCCN2C(=O)C(C)(C)Oc2ccc3cn[nH]c3c2)c([2H])c([2H])c1C([2H])([2H])[2H] | Tyrosine-protein kinase JAK1, JH2 pseudokinase domain (JAK1, Homo sapiens, UniProt P23458) | KINOMEscan |  | 1 µM | relative to: DMSO control | remaining binding | 86% |
| CC(C)(C(=O)c1cccnc1)c1cccnc1 | human coronavirus OC43 | virus-induced cell killing | MRC-5 | screen |  | maximum inhibition | 19.3% |

Repeated from above:
| SMILES | tested on | assay | test system | conditions | how to read | quantity | value |
| --- | --- | --- | --- | --- | --- | --- | --- |
| O=c1cc(N2CCOCC2)oc2c(-c3cccc4c3sc3ccccc34)cccc12 | human coronavirus OC43 | virus-induced cell killing | MRC-5 | screen |  | maximum inhibition | 7.87% |
